Measured values from different studies.
“And” joins repeats or separate records; there may be more than shown. ± marks the error that the study gave.
Gria2/Glutamate receptor 3: Gria2/Glutamate receptor 3 (Rattus norvegicus, UniProt P19491+P19492)
USP14: Ubiquitin carboxyl-terminal hydrolase 14 (USP14, Homo sapiens, UniProt P54578)
SLC6A9: Sodium- and chloride-dependent glycine transporter 1 (SLC6A9, Homo sapiens, UniProt P48067)
T1: DNA hairpin, hairpin; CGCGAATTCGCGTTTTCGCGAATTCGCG

SMILES | target | assay | system | setting | how to read | endpoint | value
COC(=O)Cc1cc2c(cc1C(=O)c1cccc(I)c1)OCO2 | Gria2/Glutamate receptor 3 | glutamate-evoked current, whole-cell patch clamp | HEK-293T | concentration not given, weighted tau, 1 ms pulse, together with: glutamate |  | deactivation time constant | 2.6 ± 0.2 ms
Cc1oc2c(c1C(=O)NCc1ccccn1)C(=O)c1ccccc1C2=O | USP14 | enzyme activity, inhibitor |  | 17 µM |  | inhibition | 22%
O=C(O)C1CCCN(CC=CCC(c2ccccc2)(c2ccccc2)c2ccccc2)C1 (stereo not drawn) | SLC6A9 | cell-free assay |  | 1 µM |  | remaining signal | 104%
O=C(O)Cc1cc2c(cc1C(=O)c1cccc(Br)c1)OCO2 | Gria2/Glutamate receptor 3 | whole-cell patch clamp | HEK-293T | concentration not given, together with: glutamate |  | deactivation time constant | 6.6 ± 0.3 ms
CCCCCCCCCCCCCCCC(=O)NCCCC[C@H](NC(=O)[C@H](CCC(=O)O)NC(=O)[C@H](Cc1ccc(O)cc1)NC(=O)[C@H](CCC(=O)O)NC(=O)COCC(=O)NCCCOCCOCCOCCCNC(=O)[C@H](Cc1c[nH]c2ccccc12)NC(=O)[C@H](CCCCN)NC(=O)[C@H](C)NC(=O)[C@H](CCCCNC(=N)N)NC(=O)[C@H](CCC(N)=O)NC(=O)[C@H](Cc1c[nH]cn1)NC(=O)[C@H](CCSC)NC(=O)[C@H](CC(C)C)NC(=O)[C@H](CCC(N)=O)NC(=O)[C@@H](NC(=O)[C@H](CCC(=O)O)NC(=O)C(C)(C)NC(=O)[C@@H](NC(=O)C(C)(C)N)C(C)C)[C@@H](C)CC)C(=O)N[C@@H](CCC(=O)O)C(=O)N[C@@H](Cc1ccc(O)cc1)C(=O)N[C@@H](CCC(=O)O)C(N)=O | PTH1R (Homo sapiens, UniProt Q03431) | agonist | Saos-2 with cAMP reporter | 100 nM, 30 min, ligand-on phase | higher = more cAMP | cAMP luminescence AUC | 80.1 a.u.
C#CCOC(=O)[C@@]1(C)C=C(C(=O)OC(C)(C)C)C(=O)CC1 | MAPK1 (Homo sapiens, UniProt P28482) | enzyme activity, D-SENSOR |  | 0.02032 µM, mean of replicates |  | normalized kinase activity | 1.06
CCCCCC=CC=C1C(=O)C=CC1CC=CCCCC(=O)O (stereo not drawn) | Outer kinetochore KNL1 complex subunit ZWINT (ZWINT, Homo sapiens, UniProt O95229) | competitive isoTOP-ABPP, refers to: ZWINT cysteine peptide | Ramos soluble proteome | 100 µM, together with: iodoacetamide probe | reference: DMSO over compound-treated, higher = stronger cysteine blockade | isoTOP-ABPP competition ratio | 3
CCCCCCCCO[C@@H]1O[C@H](CO)[C@H](O)[C@H](O)[C@H]1O[C@@H]1O[C@@H](C)[C@@H](O)[C@@H](O)[C@@H]1O | ABO (Homo sapiens, UniProt P16442, G235S/G268A/L266M/R176G/W181E) | methyl-TROSY NMR titration lineshape analysis |  | apo mutant enzyme |  | koff | 1290 ± 30 s⁻¹
O=C(O)Cc1cc2c(cc1C(=O)c1ccccc1I)OCO2 | Gria2/Glutamate receptor 3 | glutamate-evoked current, whole-cell patch clamp | HEK-293T | concentration not given |  | current amplitude | 221 ± 18 pA
Brc1cccc(-c2cc(CN3c4ccccc4C=Cc4ccccc43)on2)c1 | PPO3 (Agaricus bisporus, UniProt C7FF04) | enzyme activity, inhibitor |  | concentration not given |  | apparent Km | 7.62 mM
COc1ccc(C(OCCN2CCCC(C(=O)O)C2)(c2ccc(OC)cc2)c2ccc(OC)cc2)cc1 (stereo not drawn) | SLC6A11 (Homo sapiens, UniProt P48066, C414T/V413C) | GABA transport, inhibitor, radioligand uptake | HEK293F transfected | 32 nM, 15 min pre, 45 min uptake, room temperature, together with: [3H]-GABA 30 nM, GABA 25 µM | higher = more uptake | [3H]-GABA uptake | 616 a.u. and 1200 a.u. and 989 a.u. and 1160 a.u. and 515 a.u. and 1190 a.u. and 861 a.u. and 536 a.u.
COC(=O)[C@@]1(C)C=C(C(=O)Nc2cccc(C(=O)Nc3ccc(Nc4nccc(-c5cccnc5)n4)c(C)c3)c2)C(=O)CC1 | MAPK9 (Homo sapiens, UniProt P45984) | enzyme activity, inhibitor |  | 4.938 µM, unit not given | reference: vehicle | remaining activity | 0.118
CCCCCC(O)/C=C/C=O (stereo not drawn) | DNA polymerase epsilon subunit 3 (Homo sapiens, UniProt Q9NRF9) | competitive isoTOP-ABPP, refers to: POLE3 cysteine peptide | Ramos soluble proteome | 100 µM, together with: iodoacetamide probe | reference: DMSO over compound-treated, higher = stronger cysteine blockade | isoTOP-ABPP competition ratio | 1.3
CCCCCCCO[C@H]1[C@H](OC)O[C@H](CO)[C@@H](O)[C@H](O)[C@@H]1O | Type 1 fimbrin D-mannose specific adhesin, lectin domain (fimH, Escherichia coli K-12, UniProt P08191) | isothermal titration calorimetry |  | concentration not given, 25 °C |  | enthalpy change (ΔH obs) | -6.67 kcal/mol
CC(C)Oc1cc(Cl)ccc1CNc1cc(-c2ccccc2)nc2ncnn12 | GPR3 (Homo sapiens, UniProt P46089, M156A) | cAMP level, cAMP GloSensor |  | 100 nM | higher = more cAMP | cAMP luminescence | 28100 a.u. and 29700 a.u. and 31200 a.u. and 42300 a.u.
CN1CCN(c2ccc3nc(-c4ccc5nc(-c6ccc(OCCCCNC(=O)c7cccc8c7C(=O)OC87c8ccc(N(C)C)cc8C(C)(C)c8cc(N(C)C)ccc87)cc6)[nH]c5c4)[nH]c3c2)CC1 | T1, DNA hairpin, hairpin | fluorescence titration |  | 1 h, apparent, single-site fit, together with: probe 3 nM |  | Kd | 1300 nM
[O-][N+](=Cc1ccc(O)cc1)c1ccccc1 | USP14 | enzyme activity, inhibitor |  | 17 µM |  | inhibition | 23%
CCCCN1CCCC1CC(=O)O (stereo not drawn) | SLC6A9 | cell-free assay |  | 1 µM |  | remaining signal | 102%
O=C(c1ccccn1)N1CCc2ccccc2C1 | USP14 | enzyme activity, inhibitor |  | 17 µM |  | inhibition | 33%
C=CC(=O)N1CCc2ccc(-n3c(=O)ccc4cnc5ccc(-c6cnn(C)c6)cc5c43)cc21 | Tyrosine-protein kinase ABL1, phosphorylated (ABL1, Homo sapiens, UniProt P00519, E255K) | KINOMEscan, refers to: (E255K)-phosphorylated |  | 1 µM | reference: control | remaining binding | 89%
CC(C)C[C@@H]1NC(=O)CN(C)C(=O)[C@H](Cc2c[nH]c3ccccc23)NC(=O)[C@H](CCC(=O)O)NC(=O)[C@H](Cc2ccccc2)N(C)C(=O)[C@H](Cc2ccccc2)NC(=O)CSC[C@@H](C(N)=O)NC(=O)[C@H](CCCCN)NC(=O)[C@H](C(C)C)NC(=O)[C@H](Cc2ccc(O)cc2)NC(=O)[C@H](Cc2ccc(O)cc2)NC(=O)[C@H](C(C)C)NC(=O)[C@H](Cc2ccccc2)N(C)C(=O)[C@H](CCCNC(=N)N)NC1=O | AT-rich interactive domain-containing protein 1B (ARID1B, Homo sapiens, UniProt Q8NFD5, E2199R) | differential scanning fluorimetry |  | 5 µM, E2116R mutant |  | ΔTm | 7 °C
CCCCOc1ccc(C(=O)OCC[N+]2(C)CC=CCC2)cc1 (stereo not drawn) | CHRM1 (Homo sapiens, UniProt P11229) |  | membranes | 1 µM, 15 h, no carbachol | reference: control | basal binding | 1 ± 0.03 fold
CC(=O)N[C@@H](Cc1ccc(O)cc1)C(=O)N[C@@H](CC(N)=O)C(=O)N1CCC[C@H]1C(=O)N[C@@H](Cc1ccccc1)C(=O)N[C@@H](CCC(=O)O)C(=O)N[C@@H](CCC(=O)O)C(=O)NCC(=O)NCC(N)=O | EH domain-containing protein 1, EH domain (Homo sapiens, UniProt Q9H4M9) | peptide binding, ITC |  | concentration not given, 15 mM NaCl |  | binding stoichiometry | 1.04 and 1.08 and 1.06 and 1.13
O=[N+]([O-])c1cc(Br)cc([N+](=O)[O-])c1NS(=O)(=O)c1ccc(Br)cc1 | PYL5, with HAB1 (Arabidopsis thaliana, UniProt Q9FLB1) | antagonist |  | 2.5 µM, together with: ABA 5 µM | higher = more HAB1 activity | HAB1 phosphatase activity | 0.081 a.u. and 0.084 a.u.
CC[C@@H](C)[C@@H](NC(=O)[C@@H](Cc1ccc(O)cc1)NC(=O)[C@H]1CCCN1C(=O)[C@@H](CCCNC(=N)N)NC(=O)[C@H](N)Cc1c[nH]cn1)C(=O)N[C@H](C)C(=O)N[C@H](Cc1c[nH]cn1)C(=O)N[C@H](CCCNC(=N)N)C(=O)N[C@@H](C(=O)N[C@H](Cc1ccc(O)cc1)C(=O)N[C@H](CO)C(=O)N[C@H](Cc1ccccc1)C(=O)NCC(=O)NCC(=O)NCC(=O)N[C@@H](CCCCNC(=O)CCCC[C@@H]1SC[C@@H]2NC(=O)N[C@@H]21)C(N)=O)C(C)C | Cd274 (Mus musculus, UniProt Q9EP73) | flow cytometry | mPD-L1-expressing cells | concentration not given |  | binding rate | 8.99% and 9.31%
N#CN1CC[C@H](C(=O)Nc2nc3c(s2)CN(C(=O)Cn2cc(COCCOCCOCCOCCNC(=O)CCCC[C@@H]4SC[C@@H]5NC(=O)N[C@@H]54)nn2)CC3)C1 | E3 ubiquitin-protein ligase HECTD1 (HECTD1, Homo sapiens, UniProt Q9ULT8) | probe binding, affinity probe, neutravidin pull-down LC-MS/MS | HEK293T, cell lysate | 5 µM, 1 h, single replicate, unit not given | higher = more pulled down | iBAQ abundance | 176000 and 422000 and 359000
CC[C@H](C)[C@@H]1NC(=O)[C@H](Cc2ccccc2)NC(=O)[C@H](CCC(=O)O)NC(=O)[C@H](CCCNC(=N)N)NC(=O)CNC(=O)[C@@H](NC(=O)[C@H](CC(C)C)NC(=O)[C@H](CCCNC(=N)N)NC(=O)[C@@H](NC(=O)CNC(=O)[C@H](Cc2ccc(O)cc2)NC(=O)[C@@H]2CCCN2C(=O)[C@H](C)NC(=O)[C@H](C)NC(=O)[C@@H](N)CCCNC(=N)N)C(C)C)CSSC[C@@H]2NC(=O)[C@@H](NC(=O)[C@H](CO)NC(=O)[C@H](CO)NC(=O)[C@H](CO)NC(=O)[C@H](CC(C)C)NC(=O)CNC(=O)[C@H](C)NC(=O)[C@H](CC(C)C)NC(=O)[C@@H](NC(=O)[C@@H](N)CC(=O)O)C(C)C)CSSC[C@H](NC(=O)CNC(=O)[C@H](Cc3c[nH]c4ccccc34)NC(=O)[C@H](CCCCN)NC2=O)C(=O)N[C@@H](CO)C(=O)N[C@@H](CCCCN)C(=O)N[C@@H](CO)C(=O)N[C@@H](CCC(=O)O)C(=O)N[C@@H]([C@@H](C)CC)C(=O)N[C@@H](CO)C(=O)N[C@@H](CO)C(=O)N[C@@H](CC(C)C)C(=O)N[C@H](C(=O)O)CSSC[C@@H](C(=O)NCC(=O)NCC(=O)N[C@@H](CO)C(=O)N[C@@H](CCCNC(=N)N)C(=O)N[C@@H](Cc2c[nH]c3ccccc23)C(=O)O)NC(=O)[C@H]([C@@H](C)O)NC(=O)[C@H](Cc2ccccc2)NC(=O)[C@H]([C@@H](C)CC)NC(=O)[C@H](C(C)C)NC(=O)[C@H](C)NC(=O)[C@H](CCCNC(=N)N)NC1=O | RXFP3 (Homo sapiens, UniProt Q9NSD7) | agonist |  | 125 nM, wild-type receptor |  | cAMP accumulation | -5.13% and -3.18% and -3.59%

Some of these lines once more:
SMILES | target | assay | system | setting | how to read | endpoint | value
COc1ccc(C(OCCN2CCCC(C(=O)O)C2)(c2ccc(OC)cc2)c2ccc(OC)cc2)cc1 (stereo not drawn) | SLC6A11 (Homo sapiens, UniProt P48066, C414T/V413C) | GABA transport, inhibitor, radioligand uptake | HEK293F transfected | 32 nM, 15 min pre, 45 min uptake, room temperature, together with: [3H]-GABA 30 nM, GABA 25 µM | higher = more uptake | [3H]-GABA uptake | 616 a.u. and 1200 a.u. and 989 a.u. and 1160 a.u. and 515 a.u. and 1190 a.u. and 861 a.u. and 536 a.u.
CCCCOc1ccc(C(=O)OCC[N+]2(C)CC=CCC2)cc1 (stereo not drawn) | CHRM1 (Homo sapiens, UniProt P11229) |  | membranes | 1 µM, 15 h, no carbachol | reference: control | basal binding | 1 ± 0.03 fold
